Measurements of several laboratories.
Compare with care: the assays were run in different laboratories. ± gives the spread as reported.
Cell line: HCT-116

Structure (SMILES) | test | test system | conditions | how to read | endpoint | value
NC(=O)NOCCCCCCCCCC[P+](c1ccccc1)(c1ccccc1)c1ccccc1.O=C([O-])C(F)(F)F | cell growth, live-cell imaging |  | 0.3 µM, control at 90% confluence |  | cell confluence | 84.7%
COc1nc(NCc2cn(-c3ccc(C(=O)Nc4ccc(C(F)(F)F)cc4)cc3)nn2)nc(OC)n1 | flow cytometry |  | IC50, 24 h |  | cell cycle phase %S | 36.2%
O=P1(C2CCCCC2)CCCCC1 | Annexin V-FITC/PI flow cytometry |  | IC50, 72 h |  | late apoptotic cells | 3.2%
O=C(NOC[C@H](O)CO)c1ccc(F)c(F)c1Nc1ccc(I)cc1F |  |  | 5 µM, 72 h |  | viability | 19%
NC(=O)NOCCCCCCCCCCCCCCCC[P+](c1ccccc1)(c1ccccc1)c1ccccc1.O=C([O-])C(F)(F)F | cell growth, live-cell imaging |  | 1 µM, control at 90% confluence |  | cell confluence | 11.6%
COc1nc(NCc2cn(-c3ccc(C(=O)Nc4ccccc4)cc3)nn2)nc(OC)n1 | flow cytometry |  | IC50, 24 h | reference: untreated | G0/G1 phase cells | 1.21 fold
O=[N+]([O-])c1cc(I)c(O)c(C=NNc2ccccc2)c1 | cell cycle analysis |  | IC50, 24 h |  | cells in G2/M phase | 32.3%
Cn1cnc2c(F)c(Nc3ccc(Br)cc3F)c(C(=O)NOCCO)cc21 |  |  | 0.1562 µM, 72 h |  | viability | 83.2%
NC(=O)NO | cell growth, live-cell imaging |  | 300 µM, control at 90% confluence |  | cell confluence | 17.3 ± 3.35%
O=[N+]([O-])c1cc(Br)c(O)c(C=NNc2ccc(C(F)(F)F)cc2)c1 | ELISA | culture supernatant | IC50, with: LPS |  | TNF-α level | 66.5%

For quick reference, copied from above:
Structure (SMILES) | test | test system | conditions | how to read | endpoint | value
NC(=O)NOCCCCCCCCCC[P+](c1ccccc1)(c1ccccc1)c1ccccc1.O=C([O-])C(F)(F)F | cell growth, live-cell imaging |  | 0.3 µM, control at 90% confluence |  | cell confluence | 84.7%
